Assay results of several laboratories.
A part holds a random share of what one study measured.
UniProt Q14289, sequence (whole entry, looked up): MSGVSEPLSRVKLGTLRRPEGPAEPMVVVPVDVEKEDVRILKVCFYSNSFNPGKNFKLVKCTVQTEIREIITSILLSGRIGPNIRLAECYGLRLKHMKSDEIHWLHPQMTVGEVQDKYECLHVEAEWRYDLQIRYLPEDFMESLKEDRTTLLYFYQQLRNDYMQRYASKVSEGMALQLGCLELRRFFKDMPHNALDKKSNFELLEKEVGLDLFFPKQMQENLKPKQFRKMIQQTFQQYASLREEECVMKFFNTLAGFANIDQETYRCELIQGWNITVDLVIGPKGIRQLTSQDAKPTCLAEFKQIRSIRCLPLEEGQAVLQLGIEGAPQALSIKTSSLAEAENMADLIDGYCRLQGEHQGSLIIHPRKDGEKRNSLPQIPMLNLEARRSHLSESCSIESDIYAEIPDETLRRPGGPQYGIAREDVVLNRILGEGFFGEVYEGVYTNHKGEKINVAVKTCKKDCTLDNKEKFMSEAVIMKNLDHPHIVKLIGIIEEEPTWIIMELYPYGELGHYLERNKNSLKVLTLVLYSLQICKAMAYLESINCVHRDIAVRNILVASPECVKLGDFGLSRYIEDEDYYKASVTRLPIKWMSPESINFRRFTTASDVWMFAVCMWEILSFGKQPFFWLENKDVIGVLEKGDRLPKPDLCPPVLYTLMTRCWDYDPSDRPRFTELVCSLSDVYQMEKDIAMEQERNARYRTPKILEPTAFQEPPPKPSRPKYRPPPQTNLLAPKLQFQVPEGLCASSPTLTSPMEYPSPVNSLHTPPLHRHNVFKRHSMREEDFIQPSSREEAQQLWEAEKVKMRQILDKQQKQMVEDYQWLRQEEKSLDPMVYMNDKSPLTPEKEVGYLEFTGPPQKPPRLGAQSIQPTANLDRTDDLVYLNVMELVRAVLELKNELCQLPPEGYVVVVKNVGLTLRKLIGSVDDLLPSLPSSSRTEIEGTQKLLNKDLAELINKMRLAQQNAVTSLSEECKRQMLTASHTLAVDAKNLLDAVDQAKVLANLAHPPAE
UniProt P36896, sequence (whole entry, looked up): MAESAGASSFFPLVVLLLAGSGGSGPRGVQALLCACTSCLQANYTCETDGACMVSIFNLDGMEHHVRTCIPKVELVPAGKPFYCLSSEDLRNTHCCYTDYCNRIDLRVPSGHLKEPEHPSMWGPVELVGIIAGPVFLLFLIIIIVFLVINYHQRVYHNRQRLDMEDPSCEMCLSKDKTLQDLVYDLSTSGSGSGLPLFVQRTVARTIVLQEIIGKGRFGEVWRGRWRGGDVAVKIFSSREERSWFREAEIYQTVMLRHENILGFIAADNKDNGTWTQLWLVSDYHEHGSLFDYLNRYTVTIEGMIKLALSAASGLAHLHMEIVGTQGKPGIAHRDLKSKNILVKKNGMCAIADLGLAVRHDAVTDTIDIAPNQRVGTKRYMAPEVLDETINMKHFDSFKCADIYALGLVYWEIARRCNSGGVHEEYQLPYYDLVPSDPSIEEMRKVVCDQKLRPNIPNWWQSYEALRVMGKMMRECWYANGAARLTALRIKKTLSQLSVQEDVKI
UniProt Q15759, sequence (whole entry, looked up): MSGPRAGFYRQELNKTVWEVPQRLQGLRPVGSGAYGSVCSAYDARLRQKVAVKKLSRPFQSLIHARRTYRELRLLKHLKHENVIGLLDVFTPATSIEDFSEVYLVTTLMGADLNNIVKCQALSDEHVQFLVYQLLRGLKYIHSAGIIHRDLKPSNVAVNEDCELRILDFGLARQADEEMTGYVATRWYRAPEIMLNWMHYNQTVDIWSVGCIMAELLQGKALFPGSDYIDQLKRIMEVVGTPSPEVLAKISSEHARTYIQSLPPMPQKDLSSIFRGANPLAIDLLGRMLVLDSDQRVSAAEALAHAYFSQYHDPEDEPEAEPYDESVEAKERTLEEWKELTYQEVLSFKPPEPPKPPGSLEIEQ
UniProt P22607, sequence (whole entry, looked up): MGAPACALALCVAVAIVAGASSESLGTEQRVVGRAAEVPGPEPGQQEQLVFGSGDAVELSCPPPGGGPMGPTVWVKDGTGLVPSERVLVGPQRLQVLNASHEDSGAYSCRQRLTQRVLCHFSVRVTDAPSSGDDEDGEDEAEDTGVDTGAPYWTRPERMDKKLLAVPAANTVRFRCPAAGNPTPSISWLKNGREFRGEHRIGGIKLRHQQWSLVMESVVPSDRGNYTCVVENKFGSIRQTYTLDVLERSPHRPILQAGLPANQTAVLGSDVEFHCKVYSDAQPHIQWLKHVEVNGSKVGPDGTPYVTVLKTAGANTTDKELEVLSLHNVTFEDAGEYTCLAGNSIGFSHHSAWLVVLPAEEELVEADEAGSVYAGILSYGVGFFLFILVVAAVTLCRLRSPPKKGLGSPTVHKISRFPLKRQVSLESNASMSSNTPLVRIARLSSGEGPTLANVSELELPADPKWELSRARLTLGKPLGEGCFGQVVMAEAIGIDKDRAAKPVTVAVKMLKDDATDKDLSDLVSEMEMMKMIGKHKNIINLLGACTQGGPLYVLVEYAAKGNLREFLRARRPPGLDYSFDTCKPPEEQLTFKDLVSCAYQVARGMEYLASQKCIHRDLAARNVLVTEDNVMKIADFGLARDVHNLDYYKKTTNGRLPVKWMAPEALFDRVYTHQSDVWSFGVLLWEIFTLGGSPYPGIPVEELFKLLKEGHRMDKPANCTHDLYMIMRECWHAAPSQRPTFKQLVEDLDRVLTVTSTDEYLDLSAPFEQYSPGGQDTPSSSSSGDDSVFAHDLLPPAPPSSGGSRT
UniProt P42685, sequence (whole entry, looked up): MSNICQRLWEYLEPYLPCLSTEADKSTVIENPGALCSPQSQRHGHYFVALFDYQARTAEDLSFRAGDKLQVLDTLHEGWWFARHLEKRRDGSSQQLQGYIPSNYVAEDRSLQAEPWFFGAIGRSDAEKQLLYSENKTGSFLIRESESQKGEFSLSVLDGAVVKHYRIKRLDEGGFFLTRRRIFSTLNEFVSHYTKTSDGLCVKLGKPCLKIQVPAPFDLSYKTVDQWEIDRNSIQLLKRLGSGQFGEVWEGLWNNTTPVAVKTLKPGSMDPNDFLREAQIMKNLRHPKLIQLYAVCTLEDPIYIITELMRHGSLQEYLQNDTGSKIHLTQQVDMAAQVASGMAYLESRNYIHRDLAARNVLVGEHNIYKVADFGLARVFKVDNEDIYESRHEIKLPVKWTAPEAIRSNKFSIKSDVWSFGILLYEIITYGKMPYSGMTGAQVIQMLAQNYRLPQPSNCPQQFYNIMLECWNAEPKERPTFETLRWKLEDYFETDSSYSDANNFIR
UniProt P29320, sequence (whole entry, looked up): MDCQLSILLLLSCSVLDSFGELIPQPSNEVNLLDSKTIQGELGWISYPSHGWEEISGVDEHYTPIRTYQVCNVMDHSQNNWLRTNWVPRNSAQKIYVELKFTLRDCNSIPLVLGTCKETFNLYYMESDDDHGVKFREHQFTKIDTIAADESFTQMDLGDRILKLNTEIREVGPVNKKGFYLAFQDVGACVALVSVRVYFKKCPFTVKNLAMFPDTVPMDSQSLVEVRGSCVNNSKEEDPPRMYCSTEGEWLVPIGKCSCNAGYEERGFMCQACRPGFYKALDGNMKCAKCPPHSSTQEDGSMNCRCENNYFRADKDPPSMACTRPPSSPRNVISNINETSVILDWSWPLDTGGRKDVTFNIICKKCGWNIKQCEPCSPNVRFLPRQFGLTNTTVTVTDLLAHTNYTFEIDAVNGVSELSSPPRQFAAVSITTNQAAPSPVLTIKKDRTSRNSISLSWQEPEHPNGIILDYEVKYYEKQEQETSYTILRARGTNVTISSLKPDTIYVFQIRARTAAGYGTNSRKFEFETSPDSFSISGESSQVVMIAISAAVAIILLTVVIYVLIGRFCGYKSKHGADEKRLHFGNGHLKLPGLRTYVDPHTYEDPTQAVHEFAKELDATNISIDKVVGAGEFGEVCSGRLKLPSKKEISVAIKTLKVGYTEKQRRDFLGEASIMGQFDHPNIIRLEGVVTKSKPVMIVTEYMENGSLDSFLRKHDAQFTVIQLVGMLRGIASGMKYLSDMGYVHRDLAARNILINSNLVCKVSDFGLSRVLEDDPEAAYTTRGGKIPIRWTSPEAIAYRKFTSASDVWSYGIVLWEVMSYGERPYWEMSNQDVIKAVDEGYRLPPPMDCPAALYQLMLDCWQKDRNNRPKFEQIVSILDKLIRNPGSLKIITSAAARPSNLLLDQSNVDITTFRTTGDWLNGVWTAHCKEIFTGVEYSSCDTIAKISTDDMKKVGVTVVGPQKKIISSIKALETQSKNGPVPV
UniProt Q9UBF8, sequence (whole entry, looked up): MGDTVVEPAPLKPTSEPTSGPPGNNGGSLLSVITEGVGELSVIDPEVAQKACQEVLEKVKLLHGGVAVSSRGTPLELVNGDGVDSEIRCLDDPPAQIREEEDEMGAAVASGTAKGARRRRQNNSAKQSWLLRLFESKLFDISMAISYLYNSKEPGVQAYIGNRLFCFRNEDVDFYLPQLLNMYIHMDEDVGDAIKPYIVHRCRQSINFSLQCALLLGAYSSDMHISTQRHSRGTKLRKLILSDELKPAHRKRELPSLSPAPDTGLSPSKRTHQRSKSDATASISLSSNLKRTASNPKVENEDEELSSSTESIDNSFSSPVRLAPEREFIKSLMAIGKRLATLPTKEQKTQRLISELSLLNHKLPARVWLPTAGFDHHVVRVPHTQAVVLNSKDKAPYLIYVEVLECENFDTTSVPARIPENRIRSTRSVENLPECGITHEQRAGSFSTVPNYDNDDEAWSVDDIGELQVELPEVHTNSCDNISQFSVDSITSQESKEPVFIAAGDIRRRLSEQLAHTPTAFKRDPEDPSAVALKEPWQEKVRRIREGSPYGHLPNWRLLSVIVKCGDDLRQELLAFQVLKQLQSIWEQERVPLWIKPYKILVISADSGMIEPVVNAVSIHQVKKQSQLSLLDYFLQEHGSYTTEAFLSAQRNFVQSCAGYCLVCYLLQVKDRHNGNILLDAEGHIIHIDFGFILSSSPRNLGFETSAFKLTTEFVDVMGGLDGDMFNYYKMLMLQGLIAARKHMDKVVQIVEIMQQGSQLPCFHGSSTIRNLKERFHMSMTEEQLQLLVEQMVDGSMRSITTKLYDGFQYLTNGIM

Study 1 — tested at: 1 µM
Structure (SMILES): CC1=C(C#N)[C@@H](c2ccc3[nH]nc(C)c3c2)C(C#N)=C(c2ccc(Cl)cc2)N1
target	read-out	method	remaining binding [%]
MATK (Homo sapiens, UniProt P42679)	cell-free assay	competition with immobilised ligand	100
Tyrosine-protein kinase ABL1, phosphorylated (ABL1, Homo sapiens, UniProt P00519, F317I)	binding	–	100
PTK2B (Homo sapiens, UniProt Q14289)	cell-free assay	competition with immobilised ligand	100
BRAF (Homo sapiens, UniProt P15056, V600E)	cell-free assay	competition with immobilised ligand	100
MAPK3 (Homo sapiens, UniProt P27361)	cell-free assay	competition with immobilised ligand	100
PI4KB (Homo sapiens, UniProt Q9UBF8)	cell-free assay	competition with immobilised ligand	95.1

Study 2 — read-out: enzyme activity; mode: inhibitor; tested at: 0.5 µM; reference: control
SMILES: CC(C)(C)n1nc(Cc2cccc3ccccc23)c2c(N)ncnc21
target	remaining activity [%]
EPHA3 (Homo sapiens, UniProt P29320)	80.5
MAP2K2 (Homo sapiens, UniProt P36507)	102
FRK (Homo sapiens, UniProt P42685)	57.7
ULK3 (Homo sapiens, UniProt Q6PHR2)	97.3
FGFR3 (Homo sapiens, UniProt P22607)	94.6
NEK6 (Homo sapiens, UniProt Q9HC98)	109
TBK1 (Homo sapiens, UniProt Q9UHD2)	99.4
ACVR1B (Homo sapiens, UniProt P36896)	104
CSNK1G3 (Homo sapiens, UniProt Q9Y6M4)	101
MAPKAPK2 (Homo sapiens, UniProt P49137)	100
GRK7 (Homo sapiens, UniProt Q8WTQ7)	106
ABL2 (Homo sapiens, UniProt P42684)	79
CSNK1G2 (Homo sapiens, UniProt P78368)	101
ULK2 (Homo sapiens, UniProt Q8IYT8)	96.1

Study 3 — mode: inhibitor; tested at: 10 µM; reference: control
Target: Diamine acetyltransferase 1 (Homo sapiens, UniProt P21673)
Target sequence (P21673 1-171): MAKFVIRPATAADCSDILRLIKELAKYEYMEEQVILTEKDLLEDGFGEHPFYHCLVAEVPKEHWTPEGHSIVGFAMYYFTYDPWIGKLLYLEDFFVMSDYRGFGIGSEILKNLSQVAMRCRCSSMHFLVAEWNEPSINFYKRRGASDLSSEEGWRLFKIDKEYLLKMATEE
SMILES	remaining activity [%]
C=C(C)[C@@H]1CC[C@]2(C(=O)O)CC[C@]3(C)[C@H](CC[C@@H]4[C@@]5(C)CC[C@H](O)C(C)(C)[C@@H]5CC[C@]43C)[C@@H]12	83.4
CC(C)=CCOc1c2ccoc2c(OCC=C(C)C)c2oc(=O)ccc12	103
O=C(/C=C/c1ccccc1)OCc1ccccc1	90.5
CCCCCCC/C=C/C(=O)CCc1ccc(O)c(OC)c1	109
CCCCCCCCCCCCCCCCCCCCCCCC(=O)OC	96.6
C=C[C@H]1[C@H](O[C@@H]2O[C@H](CO)[C@@H](O)[C@H](O)[C@H]2O)OC=C(C(=O)OC)[C@H]1CC(=O)O	87.7

Study 4 — read-out: binding; tested at: 1 µM
SMILES: COc1ccc2[nH]c3c4[nH]c5ccc(OC)cc5c4c4c(c3c2c1)C(=O)NC4=O
target	method	remaining binding [%]
MINK1 (Homo sapiens, UniProt Q8N4C8)	competition with immobilised ligand	1.7
TAOK1 (Homo sapiens, UniProt Q7L7X3)	competition with immobilised ligand	100
PTK2B (Homo sapiens, UniProt Q14289)	–	68
STK36 (Homo sapiens, UniProt Q9NRP7)	competition with immobilised ligand	70
MAPK11 (Homo sapiens, UniProt Q15759)	competition with immobilised ligand	100

A few entries again (study 2):
target	remaining activity [%]
FRK (Homo sapiens, UniProt P42685)	57.7
TBK1 (Homo sapiens, UniProt Q9UHD2)	99.4
CSNK1G2 (Homo sapiens, UniProt P78368)	101
MAP2K2 (Homo sapiens, UniProt P36507)	102
